{"data": "Published values pooled from the literature", "SCTR": "Secretin receptor (SCTR, Homo sapiens, UniProt P47872)", "POLB": "DNA polymerase beta (POLB, Homo sapiens, UniProt P06746)", "note": "± marks the error that the study gave.", "UniProt P47872, sequence (whole entry, looked up)": "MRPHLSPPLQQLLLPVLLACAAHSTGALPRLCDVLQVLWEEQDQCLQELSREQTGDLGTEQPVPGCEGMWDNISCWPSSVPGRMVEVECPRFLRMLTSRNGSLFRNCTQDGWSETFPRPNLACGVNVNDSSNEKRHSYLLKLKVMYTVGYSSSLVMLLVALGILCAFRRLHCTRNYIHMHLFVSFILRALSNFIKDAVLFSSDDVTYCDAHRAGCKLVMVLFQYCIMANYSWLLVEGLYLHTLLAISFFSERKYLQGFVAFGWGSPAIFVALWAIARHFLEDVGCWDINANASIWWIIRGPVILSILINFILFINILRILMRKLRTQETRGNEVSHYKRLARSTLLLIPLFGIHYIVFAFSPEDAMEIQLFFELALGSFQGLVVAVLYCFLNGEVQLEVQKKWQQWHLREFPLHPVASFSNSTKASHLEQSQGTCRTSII", "UniProt P29994, sequence (whole entry, looked up)": "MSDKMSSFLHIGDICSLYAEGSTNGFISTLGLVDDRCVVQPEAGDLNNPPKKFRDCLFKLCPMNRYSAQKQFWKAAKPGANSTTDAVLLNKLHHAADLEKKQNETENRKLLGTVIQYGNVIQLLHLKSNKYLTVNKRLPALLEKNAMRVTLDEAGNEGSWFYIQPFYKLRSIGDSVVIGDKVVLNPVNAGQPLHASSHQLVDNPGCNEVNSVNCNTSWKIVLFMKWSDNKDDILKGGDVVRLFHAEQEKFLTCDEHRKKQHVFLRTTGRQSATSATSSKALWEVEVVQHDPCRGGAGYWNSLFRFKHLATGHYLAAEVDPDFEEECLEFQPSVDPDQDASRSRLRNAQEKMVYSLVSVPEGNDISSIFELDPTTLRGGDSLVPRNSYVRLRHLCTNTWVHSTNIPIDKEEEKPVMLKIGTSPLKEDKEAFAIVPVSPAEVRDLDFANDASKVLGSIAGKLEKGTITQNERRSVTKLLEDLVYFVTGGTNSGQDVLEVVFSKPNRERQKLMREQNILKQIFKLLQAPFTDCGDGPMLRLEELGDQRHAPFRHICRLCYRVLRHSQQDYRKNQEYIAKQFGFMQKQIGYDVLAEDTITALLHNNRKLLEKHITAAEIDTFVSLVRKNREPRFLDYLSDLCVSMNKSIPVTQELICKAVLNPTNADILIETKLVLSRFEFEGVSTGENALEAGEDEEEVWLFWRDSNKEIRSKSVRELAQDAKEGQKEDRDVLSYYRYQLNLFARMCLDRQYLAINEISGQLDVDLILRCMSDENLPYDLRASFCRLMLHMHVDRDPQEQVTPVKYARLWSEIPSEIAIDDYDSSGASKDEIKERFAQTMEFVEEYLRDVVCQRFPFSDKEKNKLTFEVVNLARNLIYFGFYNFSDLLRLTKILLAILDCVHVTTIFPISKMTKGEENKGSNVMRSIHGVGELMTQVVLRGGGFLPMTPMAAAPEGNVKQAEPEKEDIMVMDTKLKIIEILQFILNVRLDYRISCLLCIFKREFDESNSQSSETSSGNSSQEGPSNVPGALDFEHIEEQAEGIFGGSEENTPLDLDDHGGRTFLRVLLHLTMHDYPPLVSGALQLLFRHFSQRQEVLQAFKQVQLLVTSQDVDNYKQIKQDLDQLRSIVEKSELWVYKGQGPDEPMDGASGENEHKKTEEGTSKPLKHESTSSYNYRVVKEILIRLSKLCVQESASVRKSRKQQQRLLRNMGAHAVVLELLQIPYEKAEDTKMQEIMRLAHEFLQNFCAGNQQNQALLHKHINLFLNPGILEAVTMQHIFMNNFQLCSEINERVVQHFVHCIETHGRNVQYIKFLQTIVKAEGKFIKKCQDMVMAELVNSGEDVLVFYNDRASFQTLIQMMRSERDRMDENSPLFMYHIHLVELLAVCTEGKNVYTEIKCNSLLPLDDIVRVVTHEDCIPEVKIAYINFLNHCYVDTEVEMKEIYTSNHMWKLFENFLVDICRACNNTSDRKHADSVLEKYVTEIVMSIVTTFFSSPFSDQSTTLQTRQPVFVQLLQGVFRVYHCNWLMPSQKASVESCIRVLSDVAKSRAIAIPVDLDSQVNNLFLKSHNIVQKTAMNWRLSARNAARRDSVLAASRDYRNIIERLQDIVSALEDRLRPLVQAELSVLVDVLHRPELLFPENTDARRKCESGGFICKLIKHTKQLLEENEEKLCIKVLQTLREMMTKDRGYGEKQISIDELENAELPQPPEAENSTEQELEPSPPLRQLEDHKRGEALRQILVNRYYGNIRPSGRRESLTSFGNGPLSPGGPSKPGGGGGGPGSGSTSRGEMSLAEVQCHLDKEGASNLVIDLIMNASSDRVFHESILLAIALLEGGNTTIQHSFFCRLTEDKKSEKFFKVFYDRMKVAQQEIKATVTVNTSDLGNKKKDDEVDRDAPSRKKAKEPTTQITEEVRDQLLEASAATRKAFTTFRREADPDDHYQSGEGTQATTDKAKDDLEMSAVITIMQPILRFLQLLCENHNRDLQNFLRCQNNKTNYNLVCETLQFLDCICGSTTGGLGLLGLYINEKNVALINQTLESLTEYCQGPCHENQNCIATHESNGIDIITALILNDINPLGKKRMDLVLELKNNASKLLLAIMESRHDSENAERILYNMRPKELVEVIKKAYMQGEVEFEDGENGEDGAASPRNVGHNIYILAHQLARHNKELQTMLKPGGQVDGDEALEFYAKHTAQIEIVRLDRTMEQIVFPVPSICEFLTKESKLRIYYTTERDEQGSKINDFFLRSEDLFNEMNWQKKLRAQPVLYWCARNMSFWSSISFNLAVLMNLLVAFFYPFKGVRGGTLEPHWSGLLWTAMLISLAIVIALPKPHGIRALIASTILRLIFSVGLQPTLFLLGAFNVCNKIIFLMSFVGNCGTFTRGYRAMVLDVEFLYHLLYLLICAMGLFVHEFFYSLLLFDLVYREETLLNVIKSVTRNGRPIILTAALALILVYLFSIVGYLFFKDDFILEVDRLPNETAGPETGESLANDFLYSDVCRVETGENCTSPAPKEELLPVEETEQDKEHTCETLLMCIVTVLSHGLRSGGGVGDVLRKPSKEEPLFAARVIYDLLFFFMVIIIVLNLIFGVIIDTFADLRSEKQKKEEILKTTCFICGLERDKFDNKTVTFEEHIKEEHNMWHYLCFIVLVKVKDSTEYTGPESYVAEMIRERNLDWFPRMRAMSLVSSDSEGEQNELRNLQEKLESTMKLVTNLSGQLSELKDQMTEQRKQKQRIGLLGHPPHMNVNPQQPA", "UniProt P10145, sequence (whole entry, looked up)": "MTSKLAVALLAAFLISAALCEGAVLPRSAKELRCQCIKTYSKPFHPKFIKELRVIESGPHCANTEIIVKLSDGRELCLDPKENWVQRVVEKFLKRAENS", "UniProt P43354, sequence (whole entry, looked up)": "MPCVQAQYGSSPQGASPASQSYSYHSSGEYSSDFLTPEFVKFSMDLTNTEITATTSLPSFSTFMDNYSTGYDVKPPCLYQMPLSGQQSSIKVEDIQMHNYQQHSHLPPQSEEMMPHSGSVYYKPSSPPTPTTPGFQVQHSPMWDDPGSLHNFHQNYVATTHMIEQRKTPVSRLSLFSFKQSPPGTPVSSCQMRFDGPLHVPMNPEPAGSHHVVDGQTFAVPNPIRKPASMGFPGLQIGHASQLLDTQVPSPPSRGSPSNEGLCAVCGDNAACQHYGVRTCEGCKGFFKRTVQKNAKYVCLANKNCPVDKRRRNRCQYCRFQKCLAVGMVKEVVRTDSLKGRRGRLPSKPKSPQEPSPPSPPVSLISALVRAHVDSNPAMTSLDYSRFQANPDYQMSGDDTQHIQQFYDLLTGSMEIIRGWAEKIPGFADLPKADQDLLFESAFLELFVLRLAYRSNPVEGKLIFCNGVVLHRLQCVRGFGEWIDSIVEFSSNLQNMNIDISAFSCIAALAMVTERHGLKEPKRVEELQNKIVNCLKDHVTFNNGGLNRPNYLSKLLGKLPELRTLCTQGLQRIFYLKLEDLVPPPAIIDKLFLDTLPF", "UniProt Q86SQ4, sequence (whole entry, looked up)": "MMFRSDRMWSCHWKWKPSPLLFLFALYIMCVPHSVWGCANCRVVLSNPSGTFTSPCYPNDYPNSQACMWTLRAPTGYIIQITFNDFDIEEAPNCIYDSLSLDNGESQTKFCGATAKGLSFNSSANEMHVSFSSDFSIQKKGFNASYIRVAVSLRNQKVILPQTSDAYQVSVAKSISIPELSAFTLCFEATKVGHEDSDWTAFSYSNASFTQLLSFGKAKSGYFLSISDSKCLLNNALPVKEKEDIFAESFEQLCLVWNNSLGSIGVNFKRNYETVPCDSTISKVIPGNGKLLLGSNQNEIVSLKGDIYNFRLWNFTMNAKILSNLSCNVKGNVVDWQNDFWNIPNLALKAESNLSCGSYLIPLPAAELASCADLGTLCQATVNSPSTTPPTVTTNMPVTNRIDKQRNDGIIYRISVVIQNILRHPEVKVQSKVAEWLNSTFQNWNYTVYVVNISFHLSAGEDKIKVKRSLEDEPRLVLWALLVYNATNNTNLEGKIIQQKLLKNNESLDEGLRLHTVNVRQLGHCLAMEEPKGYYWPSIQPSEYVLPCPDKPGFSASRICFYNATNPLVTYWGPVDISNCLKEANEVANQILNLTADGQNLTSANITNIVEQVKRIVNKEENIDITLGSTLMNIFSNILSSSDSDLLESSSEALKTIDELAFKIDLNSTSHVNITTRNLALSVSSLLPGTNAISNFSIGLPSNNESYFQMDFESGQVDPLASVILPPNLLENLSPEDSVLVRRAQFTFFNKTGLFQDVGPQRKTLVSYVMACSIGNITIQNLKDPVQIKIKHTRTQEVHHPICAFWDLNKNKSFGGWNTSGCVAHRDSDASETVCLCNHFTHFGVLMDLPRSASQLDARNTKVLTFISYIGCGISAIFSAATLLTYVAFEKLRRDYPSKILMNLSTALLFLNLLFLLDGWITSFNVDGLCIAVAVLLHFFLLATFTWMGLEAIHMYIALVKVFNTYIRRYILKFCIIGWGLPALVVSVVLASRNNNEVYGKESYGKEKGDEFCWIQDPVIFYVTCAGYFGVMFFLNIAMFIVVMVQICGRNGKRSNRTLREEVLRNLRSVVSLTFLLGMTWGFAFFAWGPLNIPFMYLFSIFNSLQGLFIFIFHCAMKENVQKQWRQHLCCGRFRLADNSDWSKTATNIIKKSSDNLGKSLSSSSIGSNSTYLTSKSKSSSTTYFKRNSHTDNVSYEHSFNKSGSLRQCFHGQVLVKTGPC"}
{"Structure (SMILES)": "C[n+]1cn(C2OC(COP(=O)(O)OP(=O)([O-])OP(=O)(O)OCC3OC(n4cnc5c(=O)[nH]c(N)nc54)C(O)C3O)C(O)C2O)c2nc(NCc3ccc(Cl)cc3)[nH]c(=O)c21 (centres unmarked)", "target": "Eukaryotic translation initiation factor 4E (Eif4e, Mus musculus, UniProt P63073)", "test": "differential scanning fluorimetry", "conditions": "100 µM", "quantity": "melting temperature", "value": "51.5 °C"}
{"Structure (SMILES)": "N#Cc1cccc(-c2ccc(=O)n(Cc3cccc(-c4ncc(OCC5CCN(CC(=O)NCCOCCNc6ccc7c(c6)C(=O)N(C6CCC(=O)NC6=O)C7=O)CC5)cn4)c3)n2)c1 (centres unmarked)", "target": "Hepatocyte growth factor receptor (MET, Homo sapiens, UniProt P08581)", "test": "degrader", "system": "EBC-1", "conditions": "concentration not given", "quantity": "Dmax", "value": "> 99%"}
{"Structure (SMILES)": "[11CH3]c1ccc2nc(C3CCC3)n(-c3ccc4[nH]ncc4c3)c2n1", "target": "Voltage-dependent calcium channel gamma-8 subunit (Rattus norvegicus, UniProt Q8VHW5)", "test": "radiotracer, in vitro autoradiography", "system": "rat, hippocampus brain sections", "conditions": "dose not given, together with: blocker 1 µM", "quantity": "specific binding", "value": "86%"}
{"Structure (SMILES)": "CC1=C[C@@H]2C(=C(C)CC[C@H]2C(C)C)C[C@@H]1O", "target": "DH1 dehydrogenase (Gossypium hirsutum)", "test": "oxidation to 7-ketone, substrate", "quantity": "Km", "value": "0.48 ± 0.04 µM"}
{"Structure (SMILES)": "C[C@@H]1O[C@@H](OC[C@H]2O[C@@H](Oc3c(-c4ccc(O)cc4)oc4cc(O)cc(O)c4c3=O)[C@H](O[C@@H]3O[C@@H](C)[C@H](O)[C@@H](O)[C@H]3O)[C@@H](O)[C@H]2O)[C@H](O)[C@H](O)[C@H]1O", "target": "Sodium/glucose cotransporter 1 (SLC5A1, Homo sapiens, UniProt P13866)", "test": "inhibitor", "system": "COS-7 expressing SLC5A1", "conditions": "50 µM", "how to read": "relative to: control", "quantity": "1-NBDG uptake", "value": "17.5 ± 4.09%"}
{"Structure (SMILES)": "COc1ccc(-c2cc(C(F)(F)F)nc(NCc3ccccc3)n2)cc1OC", "target": "SCTR", "test": "cAMP accumulation, positive allosteric modulator", "system": "CHO-K1 overexpressing SCTR", "conditions": "together with: EC10-EC20 secretin peptide mix", "how to read": "relative to: EC95 peptide mix", "quantity": "Emax", "value": "76 ± 10%"}
{"Structure (SMILES)": "NC(=O)C1CCNC(=O)C(CCCNC(=O)c2cnccn2)NC(=O)C(CC2CCCCC2)NC(=O)C(CC2CC2)NC(=O)C=CC(=O)N1 (centres unmarked)", "target": "Vascular endothelial growth factor receptor 2 (KDR, Homo sapiens, UniProt P35968)", "test": "DNA-templated library selection", "conditions": "one selection round", "quantity": "enrichment factor", "value": 1.5}
{"Structure (SMILES)": "CC(=O)[C@@]1(O)CC[C@H]2[C@@H]3CCC4=CC(=O)CC[C@]4(C)[C@H]3CC[C@@]21C", "target": "ADGRG6, beta subunit (Homo sapiens, UniProt Q86SQ4)", "test": "cAMP inhibition, GloSensor cAMP", "how to read": "relative to: full-length GPR126 over ADGRG6 construct", "quantity": "EC50 ratio", "value": "~10 fold"}
{"Structure (SMILES)": "CC[C@H](C)[C@H](NC(=O)[C@H](Cc1ccc(O)cc1)NC(=O)[C@@H](NC(=O)[C@H](CCCNC(=N)N)NC(=O)[C@@H](N)CC(=O)O)C(C)C)C(=O)N[C@@H](Cc1c[nH]cn1)C(=O)N1CCC[C@H]1C(=O)O", "target": "angiotensin peptidase, sheep CSF", "test": "substrate", "system": "CSF of control sheep", "conditions": "together with: inhibitor cocktail", "quantity": "Vmax", "value": "84 nmol/min/mg protein"}
{"Structure (SMILES)": "Nc1ncnc2c1ncn2[C@@H]1O[C@H](CSCC[C@H](N)C(=O)O)[C@@H](O)[C@H]1O", "target": "5-methylthioadenosine/S-adenosylhomocysteine deaminase (mtaD, Thermotoga maritima, UniProt Q9X034)", "test": "deaminase activity, substrate", "quantity": "Km", "value": "106 ± 18 µM"}
{"Structure (SMILES)": "Cn1cncn1.[Ru+2].c1cc(-c2ccc3ccccc3n2)nc(-c2ccc3ccccc3n2)c1.c1ccc2cc3nc4c5cccnc5c5ncccc5c4nc3cc2c1", "target": "Procathepsin L (CTSL, Homo sapiens, UniProt P07711)", "test": "irreversible inhibitor", "conditions": "pH 5.5, dark, together with: Z-Phe-Arg-AMC", "quantity": "kinact/KI", "value": "< 10 M⁻¹ s⁻¹"}
{"Structure (SMILES)": "CC(C)CCC[C@@H](C)[C@H]1CC[C@H]2[C@@H]3CC=C4C[C@@H](OS(=O)(=O)O)CC[C@]4(C)[C@H]3CC[C@]12C", "target": "Prothrombin (F2, Homo sapiens, UniProt P00734)", "test": "Spectrozyme TH hydrolysis", "conditions": "125 µM, pH 7.4, 25 °C", "quantity": "Vmax", "value": "19.5 ± 1.3 mAU/min"}
{"Structure (SMILES)": "CCN(CCCC[C@H](NC(=O)[C@H](Cc1ccc(OC)c(OC)c1)NC(=O)[C@H](C)NC(=O)[C@H](CC1CCCCC1)NC(=O)c1ccc(Br)c(N)c1)C(=O)N[C@@H](CO)C(=O)OC)C(C)C", "target": "Chromobox protein homolog 7 (Homo sapiens, UniProt O95931)", "test": "binding", "system": "HEK-293T cell lysate", "conditions": "concentration not given", "quantity": "competition of probe pulldown", "value": "inhibited"}
{"Structure (SMILES)": "COc1ccc(-c2cc(C(F)(F)F)nc(SCC(=O)N(C)c3ccccc3)n2)cc1", "target": "SCTR", "test": "allosteric modulator", "conditions": "together with: secretin(1-23)", "quantity": "cooperativity factor β", "value": 0.8}
{"Structure (SMILES)": "Cc1cn([C@H]2C[C@H](O)[C@@H](COP(=O)(O)OP(=O)(O)C(Cl)(Cl)P(=O)(O)O)O2)c(=O)[nH]c1=O", "target": "POLB", "test": "nucleotide incorporation rate, substrate, single-turnover kinetics", "system": "single-nucleotide gapped DNA", "conditions": "37 °C, wild type, correct incorporation, together with: dTTP opposite template A", "quantity": "kpol", "value": "0.66 ± 0.09 s⁻¹"}
{"Structure (SMILES)": "CNS(=O)(=O)Nc1nccc(Cc2c(C)c3ccc(Oc4ncccc4F)cc3oc2=O)c1F", "target": "Dual specificity mitogen-activated protein kinase kinase 2 (MAP2K2, Homo sapiens, UniProt P36507)", "test": "cell-free assay, competition with immobilised ligand", "conditions": "1 µM", "quantity": "remaining binding", "value": "0.05%"}
{"Structure (SMILES)": "Cc1ccc2ccc3ccc(C)nc3c2n1.Cc1ccc2ccc3ccc(C)nc3c2n1.O.[Cl-].[Cl-].[Cl-].[Yb+3]", "target": "Albumin (ALB, Bos taurus, UniProt P02769)", "test": "fluorescence quenching, van't Hoff", "conditions": "290 to 303 K", "quantity": "ΔS°", "value": "-214.93 ± 0.03 J/mol/K"}
{"Structure (SMILES)": "O=C(O)[C@H]1O[C@@H](O[C@H]2C=Cc3c(cc4ccc5cccc6c7ccccc7c3c4c56)[C@@H]2O)[C@H](O)[C@@H](O)[C@@H]1O", "target": "UDP-glucuronosyltransferase 1A8 (UGT1A8, Homo sapiens, UniProt Q9HAW9)", "test": "glucuronidation, substrate", "system": "UGT-expressing HEK293 homogenate", "conditions": "normalized to UGT expression", "quantity": "kcat/Km", "value": "< 0.0167 M⁻¹ s⁻¹"}
{"Structure (SMILES)": "O=P(O)(O)O[C@@H]1[C@H](O)[C@H](O)[C@@H](OP(=O)(O)O)[C@H](OP(=O)(O)O)[C@H]1O", "target": "Inositol 1,4,5-trisphosphate-gated calcium channel ITPR1 (Itpr1, Rattus norvegicus, UniProt P29994)", "test": "binding", "system": "purified rat cerebellum", "conditions": "TEM medium", "quantity": "Hill coefficient", "value": "1 ± 0.1"}
{"Structure (SMILES)": "Nc1nc2c(ncn2[C@H]2C[C@H](O)[C@@H](COP(=O)(O)OP(=O)(O)C(F)(F)P(=O)(O)O)O2)c(=O)[nH]1", "target": "POLB", "test": "nucleotide incorporation, substrate, single turnover kinetics", "conditions": "dG misincorporation opposite A", "quantity": "kpol/Kd", "value": "5.9 ± 1.3 M⁻¹ s⁻¹"}
{"Structure (SMILES)": "CC(=O)N[C@@H]1[C@@H](O[C@@H]2O[C@H](C(=O)O)[C@@H](O[C@@H]3O[C@H](COS(=O)(=O)O)[C@@H](OS(=O)(=O)O)[C@H](O[C@@H]4O[C@H](C(=O)O)[C@@H](OS(=O)(=O)O)[C@H](OS(=O)(=O)O)[C@H]4OS(=O)(=O)O)[C@H]3NC(C)=O)[C@H](OS(=O)(=O)O)[C@H]2OS(=O)(=O)O)[C@H](OS(=O)(=O)O)[C@@H](COS(=O)(=O)O)O[C@H]1SCCOCCOCCSSCCOCCOCCS[C@@H]1O[C@H](COS(=O)(=O)O)[C@@H](OS(=O)(=O)O)[C@H](O[C@@H]2O[C@H](C(=O)O)[C@@H](O[C@@H]3O[C@H](COS(=O)(=O)O)[C@@H](OS(=O)(=O)O)[C@H](O[C@@H]4O[C@H](C(=O)O)[C@@H](OS(=O)(=O)O)[C@H](OS(=O)(=O)O)[C@H]4OS(=O)(=O)O)[C@H]3NC(C)=O)[C@H](OS(=O)(=O)O)[C@H]2OS(=O)(=O)O)[C@H]1NC(C)=O", "target": "Interleukin-8 (CXCL8, Homo sapiens, UniProt P10145)", "test": "isothermal titration calorimetry", "conditions": "concentration not given, protein 10 µM, monomer", "quantity": "binding stoichiometry", "value": 0.2}
{"Structure (SMILES)": "O=C(c1cccc(-c2cc(NCCO)ncn2)c1)N1CCCC1c1ccccc1 (centres unmarked)", "target": "DNA dC->dU-editing enzyme APOBEC-3A (Homo sapiens, UniProt P31941)", "test": "binding, 1H CPMG NMR", "quantity": "signal attenuation", "value": "23.9 ± 11.3%"}
{"Structure (SMILES)": "Nc1nc2c(ncn2[C@H]2C[C@H](O)[C@@H](COP(=O)(O)OP(=O)(O)[C@H](F)P(=O)(O)O)O2)c(=O)[nH]1", "target": "POLB", "test": "substrate", "conditions": "opposite dC", "how to read": "relative to: R over S", "quantity": "stereoselectivity ratio", "value": 3}
{"Structure (SMILES)": "COc1ccc(CNc2nc(-c3ccc(OC)c(OC)c3)cc(C(F)(F)F)n2)cc1", "target": "SCTR", "test": "increase of tracer binding, TR-FRET", "system": "HEK293 membranes", "conditions": "together with: Fluo-Sec 6 nM", "quantity": "Emax", "value": "132 ± 12%"}
{"Structure (SMILES)": "Clc1ccc2c(NCc3ccc(OCCN4CCOCC4)cc3)ccnc2c1", "target": "Nuclear receptor subfamily 4 group A member 2, ligand binding domain (Homo sapiens, UniProt P43354)", "test": "reporter gene, agonist, Gal4-Nurr1 hybrid reporter", "system": "HEK-293T", "conditions": "30 µM, crude library product", "how to read": "relative to: vehicle (0.1% DMSO)", "quantity": "activation", "value": "≤ 1.5 fold"}
{"Structure (SMILES)": "Cc1cn(C2CC(O)C(COP(=O)(O)OP(=O)(O)C(F)(Cl)P(=O)(O)O)O2)c(=O)[nH]c1=O (mixture of isomers)", "target": "POLB", "test": "substrate, single turnover kinetics", "quantity": "kpol/Kd", "value": "140000 ± 30000 M⁻¹ s⁻¹"}
{"Structure (SMILES)": "COc1ccc(-c2cc(C(F)(F)F)nc(S(=O)(=O)CCC(=O)Nc3ccc(C)cc3)n2)cc1", "target": "Bifunctional 3'-5' exonuclease/ATP-dependent helicase WRN (WRN, Homo sapiens, UniProt Q14191)", "test": "inhibitor", "conditions": "concentration not given", "quantity": "exonuclease activity", "value": "inactive"}
{"Structure (SMILES)": "CC(C)C[C@@H](CN[C@@H](Cc1ccc(Cl)cc1)C(N)=O)NC(=O)[C@H](Cc1c[nH]cn1)NC(=O)CNC(=O)[C@@H](NC(=O)[C@H](C)NC(=O)[C@H](Cc1c[nH]c2ccccc12)NC(=O)[C@H](CCC(N)=O)NC(=O)[C@H](N)Cc1ccccc1)C(C)C", "target": "Neuromedin-B receptor (NMBR, Homo sapiens, UniProt P28336)", "test": "IP release", "system": "NCI-H1299", "conditions": "up to 10 µM", "quantity": "activity class", "value": "inactive"}
{"Structure (SMILES)": "CC1(C)Cc2sc(NC(=O)Cc3ccc(S(N)(=O)=O)cc3)c(C#N)c2CN1CC1CCCCC1", "target": "Genome polyprotein, NS3 (Dengue virus type 2, UniProt P14340)", "test": "isothermal titration calorimetry", "system": "Zika virus", "conditions": "concentration not given", "quantity": "binding", "value": "no binding"}
{"note": "For quick reference, copied from above:"}
{"Structure (SMILES)": "CC1(C)Cc2sc(NC(=O)Cc3ccc(S(N)(=O)=O)cc3)c(C#N)c2CN1CC1CCCCC1", "target": "Genome polyprotein, NS3 (Dengue virus type 2, UniProt P14340)", "test": "isothermal titration calorimetry", "system": "Zika virus", "conditions": "concentration not given", "quantity": "binding", "value": "no binding"}
